Assay results collected from several papers.
Protocols differ between the studies behind these lines. ± gives the spread as reported.
PPO3: PPO3 (Agaricus bisporus, UniProt C7FF04)
Chain of UniProt C7FF04 (whole entry, looked up): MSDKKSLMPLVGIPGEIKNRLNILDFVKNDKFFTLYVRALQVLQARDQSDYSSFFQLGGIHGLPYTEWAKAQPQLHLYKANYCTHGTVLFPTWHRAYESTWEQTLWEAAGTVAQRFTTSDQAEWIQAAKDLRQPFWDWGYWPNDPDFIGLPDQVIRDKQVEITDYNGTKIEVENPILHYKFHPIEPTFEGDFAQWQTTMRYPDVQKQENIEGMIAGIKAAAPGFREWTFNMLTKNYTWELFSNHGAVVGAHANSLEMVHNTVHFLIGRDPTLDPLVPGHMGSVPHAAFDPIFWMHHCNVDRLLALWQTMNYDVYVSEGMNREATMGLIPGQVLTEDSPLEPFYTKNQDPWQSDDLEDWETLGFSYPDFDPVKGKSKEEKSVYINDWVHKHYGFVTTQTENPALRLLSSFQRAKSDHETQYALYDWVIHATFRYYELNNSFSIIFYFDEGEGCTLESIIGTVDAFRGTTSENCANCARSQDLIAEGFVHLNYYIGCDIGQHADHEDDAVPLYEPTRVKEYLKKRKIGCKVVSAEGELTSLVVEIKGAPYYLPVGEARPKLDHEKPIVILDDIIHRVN
T1: DNA G4 pilE G-quadruplex (Neisseria gonorrhoeae); GGGTGGGTTGGGTGGG
T2: dsDNA; GCGCATATGCGC
Chain of UniProt Q6UWW8 (whole entry, looked up): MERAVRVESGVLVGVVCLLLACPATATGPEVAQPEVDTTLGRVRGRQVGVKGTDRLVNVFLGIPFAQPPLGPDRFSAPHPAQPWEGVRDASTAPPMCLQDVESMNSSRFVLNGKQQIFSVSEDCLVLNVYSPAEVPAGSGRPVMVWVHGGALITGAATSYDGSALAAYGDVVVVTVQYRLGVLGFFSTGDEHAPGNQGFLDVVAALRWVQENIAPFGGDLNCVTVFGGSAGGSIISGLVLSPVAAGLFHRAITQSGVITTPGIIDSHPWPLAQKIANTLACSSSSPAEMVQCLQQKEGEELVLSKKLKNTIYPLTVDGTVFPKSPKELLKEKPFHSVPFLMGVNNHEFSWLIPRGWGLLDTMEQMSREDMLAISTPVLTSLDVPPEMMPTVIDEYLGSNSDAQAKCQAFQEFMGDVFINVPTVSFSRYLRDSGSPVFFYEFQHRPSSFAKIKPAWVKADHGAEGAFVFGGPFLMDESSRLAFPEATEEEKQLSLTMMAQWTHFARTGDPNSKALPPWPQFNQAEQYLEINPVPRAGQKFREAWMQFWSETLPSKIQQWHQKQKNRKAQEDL
Chain of UniProt Q13490 (whole entry, looked up): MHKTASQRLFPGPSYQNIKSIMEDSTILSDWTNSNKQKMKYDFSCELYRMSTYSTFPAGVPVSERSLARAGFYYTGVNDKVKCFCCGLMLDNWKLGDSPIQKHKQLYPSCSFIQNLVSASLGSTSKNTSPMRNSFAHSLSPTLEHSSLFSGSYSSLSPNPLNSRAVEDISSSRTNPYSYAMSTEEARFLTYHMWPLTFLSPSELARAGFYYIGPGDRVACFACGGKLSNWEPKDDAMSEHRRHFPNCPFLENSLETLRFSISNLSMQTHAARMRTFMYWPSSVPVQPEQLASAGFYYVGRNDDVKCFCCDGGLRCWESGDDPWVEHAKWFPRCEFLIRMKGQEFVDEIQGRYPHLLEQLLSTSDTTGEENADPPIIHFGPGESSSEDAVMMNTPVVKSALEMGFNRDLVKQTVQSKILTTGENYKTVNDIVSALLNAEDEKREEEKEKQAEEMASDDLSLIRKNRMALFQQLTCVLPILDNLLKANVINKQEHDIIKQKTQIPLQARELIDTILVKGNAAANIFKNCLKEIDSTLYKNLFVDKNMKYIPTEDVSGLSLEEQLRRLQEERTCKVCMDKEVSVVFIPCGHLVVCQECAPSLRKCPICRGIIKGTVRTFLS
Chain of UniProt Q8HZR1 (whole entry, looked up): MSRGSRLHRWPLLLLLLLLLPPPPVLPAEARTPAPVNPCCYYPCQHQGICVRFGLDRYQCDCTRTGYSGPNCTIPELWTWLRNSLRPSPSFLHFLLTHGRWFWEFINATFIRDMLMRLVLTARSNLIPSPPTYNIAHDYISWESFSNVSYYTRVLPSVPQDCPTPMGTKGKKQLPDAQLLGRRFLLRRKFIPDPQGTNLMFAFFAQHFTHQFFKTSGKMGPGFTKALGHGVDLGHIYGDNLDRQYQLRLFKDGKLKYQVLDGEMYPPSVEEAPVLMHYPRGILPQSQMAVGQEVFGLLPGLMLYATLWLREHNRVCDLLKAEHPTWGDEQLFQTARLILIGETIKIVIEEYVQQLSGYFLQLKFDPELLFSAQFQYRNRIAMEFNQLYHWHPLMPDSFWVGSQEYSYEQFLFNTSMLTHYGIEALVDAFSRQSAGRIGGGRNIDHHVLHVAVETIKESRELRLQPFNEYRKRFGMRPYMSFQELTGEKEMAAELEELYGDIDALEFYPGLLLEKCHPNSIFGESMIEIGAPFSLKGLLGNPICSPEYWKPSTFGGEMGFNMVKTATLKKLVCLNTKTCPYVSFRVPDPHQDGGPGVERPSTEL

`CC(=O)Nc1ccc2[nH]c(C(F)(F)F)nc2c1` — result for binding: “active” (Dual specificity protein phosphatase 3 (DUSP3, Homo sapiens, UniProt P51452); ligand-observed 19F NMR; concentration not given, together with: DUSP3 4 or 8 µM).
For `O=C(Cn1c2ccccc2c2ccncc21)N(c1ccc(F)cc1)c1ccc(F)cc1`, the EC200 was 2 ± 0.9 µM (Proteasome subunit alpha type-2/Proteasome subunit alpha type-6, 20S proteasome (Homo sapiens, UniProt P25787+P60900); proteolysis, activator, fluorogenic peptide; purified 20S proteasome; together with: Suc-LLVY-AMC, Z-LLE-AMC, Boc-LRR-AMC).
`Nc1ncnc2c1ncn2[C@@H]1O[C@H](CO)[C@@H](O[C@H]2O[C@H](CO)[C@@H](OP(=O)(O)O)[C@H](OP(=O)(O)O)[C@H]2O)[C@H]1O` has a Hill coefficient of 1 ± 0.1 (Inositol 1,4,5-trisphosphate-gated calcium channel ITPR1, N-terminal region (Itpr1, Rattus norvegicus, UniProt P29994, del318-332); [3H]IP3 competition binding; N-terminal fragment).
With `CC1=N/C(=C\c2ccc3cc(N(C)C)ccc3c2)C(=O)N1C` the Kd was 2790 nM (T1, DNA G4 pilE G-quadruplex (Neisseria gonorrhoeae); fluorescence titration; pH 7.4, K+ 100 mM).
For `Nc1nc(N)c2ncn([C@@H]3O[C@@H]4COP(=O)(O)O[C@H]5[C@@H](O)[C@H](n6cnc7c(N)nc(N)nc76)O[C@@H]5COP(=O)(O)O[C@H]4[C@H]3O)c2n1`, binding read “no binding” (ydaO riboswitch, Bacillus subtilis, wild type; competition gel shift; up to 200 µM, together with: c-di-AMP).
`CC(C)C[C@H](NC(=O)CNC(=O)[C@H](CC(C)C)NC(=O)[C@@H]1CCCN1C(=O)CNC(=O)[C@@H](N)Cc1ccccc1)C(=O)N[C@@H](CCCNC(=N)N)C(=O)N[C@@H](CO)C(=O)N[C@@H](CCCCN)C(=O)O` gave a hydrolysis product of 96% (Matrix metalloproteinase-9 (MMP9, Homo sapiens, UniProt P14780); substrate, HPLC; 500 µM, 72 h, pH 7.5, 37 °C).
The residence time of `NCCCC[C@H](NC(=O)[C@H](C/C=C/C[C@H](NC(=O)[C@@H]1CCCN1)C(=O)N[C@@H](CCCCN)C(=O)NCCCN)NC(=O)[C@@H]1CCCN1)C(=O)NCCCN` is reported as 30 s ((CAG)10 RNA; SPR).
Under binding, `C[n+]1c(C=Cc2ccc(O)c(C=Cc3sc4ccccc4[n+]3C)c2)sc2ccccc21` is recorded as “binds weakly” (T2, dsDNA; fluorescence enhancement).
With `Cc1cc(N2CC[C@@](C#N)(C3(C)CC3)C2=O)cc(C(=O)NCc2cc(F)cc(-c3cnn(C)c3)c2)n1` the melting temperature was 77.2 °C (Proline--tRNA ligase (Plasmodium falciparum, UniProt Q8I5R7); thermal shift; together with: ATP 2 mM).
`O=c1c2ccccc2n(CC2CC2)c(=O)n1O` gave a Kiu of 306 ± 125 nM (Flap endonuclease 1 (Homo sapiens, UniProt P39748); inhibitor; mixed inhibition, together with: double-flap substrate DF1).
`CCC1(O)CCCN(C(=O)c2ccc(-c3ccccc3C(F)(F)F)cc2)C1` (stereo not shown) gave a signal attenuation of 95.8 ± 5.9% (DNA dC->dU-editing enzyme APOBEC-3B, C-terminal domain (Homo sapiens, UniProt Q9UH17); binding, 1H CPMG NMR; 20 µM protein).
The stabilization factor of `O=Cc1ccc(-n2ccnc2Br)nc1` is reported as 2.4 fold (14-3-3 protein gamma, with Pin1 peptide (YWHAG, Homo sapiens, UniProt P61981); fluorescence anisotropy; 100 µM; baseline: DMSO).
For `COc1ccc(S(=O)(=O)n2nc(OC(=O)c3ccccc3)cc2N)cc1`, “protein mass shift” read 104 Da (Genome polyprotein, NS2B-NS3 protease (dengue virus type 2, UniProt P29990); ESI-TOF MS; 20 µM, 1 h, 25 °C; baseline: DMSO control).
`CCCCCCCC(=O)Nc1ccc(OC)nc1` gave a specific activity of 6.6 pmol/min/µg (Carboxylesterase 3 (CES3, Homo sapiens, UniProt Q6UWW8); substrate; 50 µM, pH 8, 37 °C, enzyme purity 3%).
`CC(C)CN(CC(C)C)C(=O)/C=C/C=C/c1ccc2c(c1)OCO2` has an Emax of 572 ± 51% (Gabra2/Gabrb2, with γ2S subunit (Rattus norvegicus, UniProt P23576+P63138); GABA current potentiation, positive modulator, two-electrode voltage clamp; Xenopus oocytes expressing α2β2γ2S; together with: GABA EC3-7).
`CC(C)C[C@H](NC(=O)[C@H](CCC(=O)O)NC(=O)[C@@H](N)CS)C(=O)N[C@@H](CC(N)=O)C(=O)O` gave a remaining activity of 90.3% (PPO3; enzyme activity, inhibitor; 12.5 µM).
`NS(=O)(=O)c1ccc(N2N=C(C(F)(F)F)C(O)C2c2ccc(F)cc2F)cc1` (stereo not shown) has an IC80 of over 500000 nM (Prostaglandin G/H synthase 1 (Canis lupus familiaris, UniProt Q8HZR1); TXB2 formation, inhibitor; clotting dog whole blood; 1 h, 37 °C).
The ΔH of `O=C(O)CCc1ccc(O)cc1` is reported as -5.28 ± 0.01 kcal/mol (p-hydroxyphenylacetate 3-hydroxylase, reductase component (C1-hpah, Acinetobacter baumannii, UniProt Q6Q271); ITC; pH 7).
`COc1cc(C2CC(=O)Nc3nc(N)[nH]c(=O)c32)ccc1O` (stereo not shown) gave a ΔH of -17.2 ± 1.3 kcal/mol (uncharacterized protein (Leishmania donovani, UniProt A0A3Q8IA09); competitive ITC; together with: aspartate 60 µM).
`CC[C@H](C)[C@H](NC(=O)[C@H](CCCCN)NC(=O)[C@H](CCCCN)NC(=O)[C@@H](NC(=O)[C@H](CCC(=O)O)NC(=O)[C@H](CCC(=O)O)NC(=O)[C@H](C)NC(=O)[C@H](CO)NC(=O)[C@H](CC(C)C)NC(=O)[C@H](CC(=O)O)NC(=O)[C@H](CC(C)C)NC(=O)CNC(=O)[C@H](CCCNC(=N)N)NC(=O)[C@H](CC(C)C)NC(=O)[C@H](CO)NC(=O)CNC(=O)CNC(=O)CNC(=O)CCCC[C@@H]1SC[C@@H]2NC(=O)N[C@@H]21)C(C)C)C(=O)N[C@@H](CC(C)C)C(=O)N[C@@H](CC(=O)O)C(=O)N[C@@H](CCC(=O)O)C(=O)N[C@H](C(=O)N[C@H](C(=O)N[C@@H](CCCCN)C(=O)N[C@@H](CC(=O)O)C(=O)O)C(C)C)[C@@H](C)CC` gave a Kd ratio of 4.2 (Fab B11 antibody (human); binding, biolayer interferometry; baseline: alanine mutant over wild type).
For `Oc1cc(O)c2c(c1)O[C@H](c1ccc(O)c(O)c1)[C@@H](O)[C@@H]2c1c(O)cc(O)c2c1O[C@H](c1ccc(O)c(O)c1)[C@H](O)C2`, the Vmax was 312 µM/min (PPO3; inhibitor).
`C=C1C(=O)O[C@@H]2[C@H]3C(CO)=CC(=O)C3=C(C)C[C@H](O)[C@@H]12`: “binding free energy” -5.69 kcal/mol (Alpha-glucosidase MAL12 (MAL12, Saccharomyces cerevisiae S288c, UniProt P53341); fluorescence quenching; 310 K).
With `CC(C)C[C@H](NC(=O)[C@H](CC(N)=O)NC(=O)[C@H](CCC(=O)O)NC(=O)[C@@H](N)CS)C(=O)O` the remaining activity was 84.2% (PPO3; enzyme activity, inhibitor; 25 µM).
`CCN(CC)c1ccc(CNC(=O)[C@@H]2CC[C@@H]3CCN(C(=O)Cc4ccccc4)C[C@H](NC(=O)[C@H](C)NC)C(=O)N32)cc1` has a selectivity ratio of 287 (Baculoviral IAP repeat-containing protein 2, BIR3 domain (BIRC2, Homo sapiens, UniProt Q13490); fluorescence polarization; baseline: Ki XIAP over Ki cIAP1).
For `O=C(NC[C@@H](Cc1ccc(F)cc1)N1CCC(O)(C(F)(F)F)CC1)C1(c2ccc(Cl)cc2)CCCC1`, the Emax was 0.41 ± 0.03 (Transient receptor potential cation channel subfamily A member 1 (TRPA1, Homo sapiens, UniProt O75762); calcium influx, agonist; HEK293F transfected; unit not given; baseline: AITC).

A few entries again:
`CCC1(O)CCCN(C(=O)c2ccc(-c3ccccc3C(F)(F)F)cc2)C1` (stereo not shown) gave a signal attenuation of 95.8 ± 5.9% (DNA dC->dU-editing enzyme APOBEC-3B, C-terminal domain (Homo sapiens, UniProt Q9UH17); binding, 1H CPMG NMR; 20 µM protein).
The stabilization factor of `O=Cc1ccc(-n2ccnc2Br)nc1` is reported as 2.4 fold (14-3-3 protein gamma, with Pin1 peptide (YWHAG, Homo sapiens, UniProt P61981); fluorescence anisotropy; 100 µM; baseline: DMSO).
For `COc1ccc(S(=O)(=O)n2nc(OC(=O)c3ccccc3)cc2N)cc1`, “protein mass shift” read 104 Da (Genome polyprotein, NS2B-NS3 protease (dengue virus type 2, UniProt P29990); ESI-TOF MS; 20 µM, 1 h, 25 °C; baseline: DMSO control).
